Measured values from different studies.
Compare with care: the assays were run in different laboratories. Several values in a cell are separate wells, animals, samples, runs or records. Numbers after ± are the reported error.
Chain of UniProt Q16853 (whole entry, looked up): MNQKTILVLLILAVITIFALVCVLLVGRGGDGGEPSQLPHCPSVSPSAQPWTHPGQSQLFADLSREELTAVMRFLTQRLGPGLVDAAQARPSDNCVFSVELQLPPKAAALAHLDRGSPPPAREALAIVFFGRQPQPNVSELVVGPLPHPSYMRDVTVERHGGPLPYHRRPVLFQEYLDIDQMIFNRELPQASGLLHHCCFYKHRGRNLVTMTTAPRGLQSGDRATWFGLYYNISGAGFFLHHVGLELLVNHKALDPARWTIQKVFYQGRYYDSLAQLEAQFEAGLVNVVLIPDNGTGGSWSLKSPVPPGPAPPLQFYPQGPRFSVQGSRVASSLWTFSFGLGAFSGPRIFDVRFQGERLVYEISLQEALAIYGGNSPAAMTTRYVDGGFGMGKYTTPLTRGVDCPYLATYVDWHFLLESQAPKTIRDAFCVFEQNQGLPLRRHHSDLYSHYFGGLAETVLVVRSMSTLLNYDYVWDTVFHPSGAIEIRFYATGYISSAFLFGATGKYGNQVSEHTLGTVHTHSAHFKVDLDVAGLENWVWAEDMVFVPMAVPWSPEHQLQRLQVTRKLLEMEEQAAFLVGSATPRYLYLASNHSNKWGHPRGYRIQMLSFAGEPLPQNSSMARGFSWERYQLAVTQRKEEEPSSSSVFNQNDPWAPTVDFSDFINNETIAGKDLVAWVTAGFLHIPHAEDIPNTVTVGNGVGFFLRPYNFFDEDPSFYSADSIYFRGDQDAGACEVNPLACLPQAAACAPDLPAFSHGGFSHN

Structure (SMILES) | tested on | assay | test system | setting | scale | quantity | result
CCOc1c([C@H](C)n2nc(C)c3c(N)ncnc32)cc(Cl)c(F)c1[C@@H]1CNC(=O)C1 | – | item: QRS > 110 ms | previously treated B-cell malignancy | oral, dose not given, all doses | – | patients with high heart rate | 14.5%
O=C(O)Cc1ccc(O)cc1 | HCT-8 infected with Cryptosporidium parvum | Hoechst nuclei count | – | 1 mM, 24 h | baseline: PBS | host cell number | 1 ± 0.022
CC[C@H](CO)N(CCN(N=O)[C@H](CC)CO)N=O | Salmonella typhimurium | plate incorporation | TA1535, water | 3750 µg/plate, without S9 test 2 | – | revertant colonies per plate | 25.7 ± 10
CC(=O)OCc1nn(C)c2nc(N)[nH]c(=O)c2c1=O | Escherichia coli | LC-MS/MS | BW25113 | 100 µM, 10 min, 37 °C | – | intracellular accumulation | 5.79 µM
Cc1cc(C(=O)NC(C)(C)COc2cccc3c2C(N)=NS(=O)(=O)N3)cc(C)n1 | human peripheral blood lymphocytes | CBPI, concurrent micronucleus test | – | 1000 µg/mL, 4 h | baseline: vehicle control | cytotoxicity | -6%
CCN1/C(=C/C(C)=O)Sc2ccc(F)cc21 | – | – | cynomolgus monkey | oral, 10 mg/kg, 6 h post-dose | – | QT interval | 251 ± 34 ms
Cc1cc(Nc2ccc(S(F)(F)(F)(F)F)cc2)n2nc(C(C)(F)F)nc2n1 | Plasmodium vivax | 12-lead ECG | malaria patients | oral, 400 mg, increase above 30 ms | – | patients with QTcB increase | 0%
CC(=O)Nc1cccc(-n2c(=O)n(C3CC3)c(=O)c3c(Nc4ccc(I)cc4F)n(C)c(=O)c(C)c32)c1 | MeWo | resazurin | – | concentration not given, 72 h, unit not given | baseline: DMSO | viability | 0.882 and 0.541 and 0.973 and 0.722 and 0.525 and 0.956
C[C@@H](O)[C@H](N)C(=O)O | Escherichia coli | – | MG1655, M9 medium | 1 mM, 1 mM equimolar amino acid mixture | – | uptake half-time | > 28 h
NCc1cc2c(cc1F)C(=O)N(C1CCC(=O)NC1=O)C2 (centres unmarked) | AOC3 (Homo sapiens, UniProt Q16853) | substrate, LC-MS/MS | cirrhotic human liver lysate | 31.25 µM, 60 min, pH 7.4 | – | concentration | 3720 ng/mL and 3870 ng/mL
CCn1c(=O)c2c(nc(/C=C/c3ccc(OC)c(OC)c3)n2C)n(CC)c1=O | MDCK | – | – | 1 µM, 90 min, pH 6.5 apical, 7.4 basolateral, basolateral to apical | – | mass recovery | 78 ± 5%
N[C@@H](CCC(=O)O)C(=O)O | Escherichia coli | amino acid uptake | MG1655 | with: equimolar amino acid mixture 1 mM | – | half-time of uptake | 19.9 h
Cc1cc(N)c2c(OCC(C)(C)C(=O)NC(C)C)cccc2n1 | Salmonella typhimurium | reverse mutation, plate incorporation | TA100 | 100 µg/plate, without S9 | – | mean revertant colonies | 70 colonies/plate
Cc1cnc(Nc2ccc(OCCN3CCCC3)cc2)nc1Nc1cccc(S(=O)(=O)NC(C)(C)C)c1 | MDCK | – | – | 1 µM, 90 min, pH 6.5 apical, 7.4 basolateral, apical to basolateral | – | mass recovery | 95 ± 8%

Repeated from above:
Structure (SMILES) | tested on | assay | test system | setting | scale | quantity | result
Cc1cc(N)c2c(OCC(C)(C)C(=O)NC(C)C)cccc2n1 | Salmonella typhimurium | reverse mutation, plate incorporation | TA100 | 100 µg/plate, without S9 | – | mean revertant colonies | 70 colonies/plate
